{"data": "Assay results from different studies", "note": "A part holds a random share of what one study measured. Values joined by “and” are separate records of one study, mostly repeats; a detail may differ. Positions count from the first letter of the parent shown.", "UniProt P07949, sequence (whole entry, unmodified, looked up)": "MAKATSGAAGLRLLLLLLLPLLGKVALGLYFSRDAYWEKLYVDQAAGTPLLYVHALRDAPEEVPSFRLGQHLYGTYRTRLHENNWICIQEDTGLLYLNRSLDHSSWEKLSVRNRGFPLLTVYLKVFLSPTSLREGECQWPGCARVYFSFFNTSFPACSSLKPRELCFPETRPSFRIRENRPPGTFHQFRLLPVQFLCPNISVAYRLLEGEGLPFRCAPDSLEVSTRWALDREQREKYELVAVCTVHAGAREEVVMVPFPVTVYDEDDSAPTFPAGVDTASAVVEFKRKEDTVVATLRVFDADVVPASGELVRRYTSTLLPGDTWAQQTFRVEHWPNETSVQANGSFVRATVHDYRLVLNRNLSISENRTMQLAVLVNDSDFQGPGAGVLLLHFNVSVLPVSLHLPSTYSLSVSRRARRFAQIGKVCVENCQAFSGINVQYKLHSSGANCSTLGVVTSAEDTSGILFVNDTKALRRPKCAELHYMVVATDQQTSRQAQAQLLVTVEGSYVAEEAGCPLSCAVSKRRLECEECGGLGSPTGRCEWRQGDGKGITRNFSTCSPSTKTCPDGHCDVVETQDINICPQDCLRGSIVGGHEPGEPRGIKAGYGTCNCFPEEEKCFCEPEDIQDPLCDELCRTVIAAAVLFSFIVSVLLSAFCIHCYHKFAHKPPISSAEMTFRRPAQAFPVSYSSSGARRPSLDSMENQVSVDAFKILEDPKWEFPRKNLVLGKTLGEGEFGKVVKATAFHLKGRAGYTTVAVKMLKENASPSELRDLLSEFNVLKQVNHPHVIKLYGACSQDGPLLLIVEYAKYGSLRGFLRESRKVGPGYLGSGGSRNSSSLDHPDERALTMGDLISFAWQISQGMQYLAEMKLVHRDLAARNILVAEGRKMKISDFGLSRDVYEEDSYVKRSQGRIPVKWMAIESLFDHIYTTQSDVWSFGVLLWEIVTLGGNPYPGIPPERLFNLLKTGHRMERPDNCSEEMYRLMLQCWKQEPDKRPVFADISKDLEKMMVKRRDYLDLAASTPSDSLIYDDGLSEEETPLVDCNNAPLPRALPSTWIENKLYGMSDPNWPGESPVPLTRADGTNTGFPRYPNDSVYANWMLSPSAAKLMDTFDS", "UniProt Q8NEV4, sequence (whole entry, looked up)": "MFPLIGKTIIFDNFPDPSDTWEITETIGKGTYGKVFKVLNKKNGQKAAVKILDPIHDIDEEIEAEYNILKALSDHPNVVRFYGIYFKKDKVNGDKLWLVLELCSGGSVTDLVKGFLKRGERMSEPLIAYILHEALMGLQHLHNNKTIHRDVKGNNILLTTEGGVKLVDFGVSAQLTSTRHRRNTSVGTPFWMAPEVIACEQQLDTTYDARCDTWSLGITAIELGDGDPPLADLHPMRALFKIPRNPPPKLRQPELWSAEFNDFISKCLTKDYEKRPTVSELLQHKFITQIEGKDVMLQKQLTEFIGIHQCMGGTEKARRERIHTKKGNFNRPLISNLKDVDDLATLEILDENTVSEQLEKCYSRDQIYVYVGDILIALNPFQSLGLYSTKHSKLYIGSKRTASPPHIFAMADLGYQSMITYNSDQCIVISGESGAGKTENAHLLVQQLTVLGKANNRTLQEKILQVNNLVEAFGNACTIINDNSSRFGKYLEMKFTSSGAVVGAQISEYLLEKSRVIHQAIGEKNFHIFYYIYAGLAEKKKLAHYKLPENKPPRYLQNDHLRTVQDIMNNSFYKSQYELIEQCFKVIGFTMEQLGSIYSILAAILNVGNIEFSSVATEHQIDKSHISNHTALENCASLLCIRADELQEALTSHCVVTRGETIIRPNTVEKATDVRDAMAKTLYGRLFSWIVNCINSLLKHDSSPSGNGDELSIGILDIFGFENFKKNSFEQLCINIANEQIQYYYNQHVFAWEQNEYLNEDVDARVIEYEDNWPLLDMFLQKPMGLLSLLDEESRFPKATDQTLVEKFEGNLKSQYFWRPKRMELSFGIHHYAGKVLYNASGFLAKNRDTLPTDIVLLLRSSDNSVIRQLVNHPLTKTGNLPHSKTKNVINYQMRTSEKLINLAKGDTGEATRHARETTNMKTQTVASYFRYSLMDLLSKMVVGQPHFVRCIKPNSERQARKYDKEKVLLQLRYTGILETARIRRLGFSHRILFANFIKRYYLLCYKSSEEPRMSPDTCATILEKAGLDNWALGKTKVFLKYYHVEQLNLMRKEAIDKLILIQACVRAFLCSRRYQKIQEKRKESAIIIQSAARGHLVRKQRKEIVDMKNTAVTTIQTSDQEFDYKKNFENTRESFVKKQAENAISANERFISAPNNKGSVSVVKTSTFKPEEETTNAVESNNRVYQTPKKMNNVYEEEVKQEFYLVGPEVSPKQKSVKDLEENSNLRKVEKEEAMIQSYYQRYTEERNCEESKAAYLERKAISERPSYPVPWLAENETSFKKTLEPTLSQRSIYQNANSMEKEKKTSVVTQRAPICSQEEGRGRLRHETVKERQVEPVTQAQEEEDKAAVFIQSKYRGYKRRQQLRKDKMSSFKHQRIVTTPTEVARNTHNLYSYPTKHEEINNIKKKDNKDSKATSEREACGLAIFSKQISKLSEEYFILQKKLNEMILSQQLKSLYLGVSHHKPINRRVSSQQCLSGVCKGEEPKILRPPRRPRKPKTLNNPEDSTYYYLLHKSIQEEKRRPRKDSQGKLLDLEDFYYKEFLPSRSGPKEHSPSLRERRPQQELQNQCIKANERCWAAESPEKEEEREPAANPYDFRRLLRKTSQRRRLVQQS", "UniProt P49840, sequence (whole entry, looked up)": "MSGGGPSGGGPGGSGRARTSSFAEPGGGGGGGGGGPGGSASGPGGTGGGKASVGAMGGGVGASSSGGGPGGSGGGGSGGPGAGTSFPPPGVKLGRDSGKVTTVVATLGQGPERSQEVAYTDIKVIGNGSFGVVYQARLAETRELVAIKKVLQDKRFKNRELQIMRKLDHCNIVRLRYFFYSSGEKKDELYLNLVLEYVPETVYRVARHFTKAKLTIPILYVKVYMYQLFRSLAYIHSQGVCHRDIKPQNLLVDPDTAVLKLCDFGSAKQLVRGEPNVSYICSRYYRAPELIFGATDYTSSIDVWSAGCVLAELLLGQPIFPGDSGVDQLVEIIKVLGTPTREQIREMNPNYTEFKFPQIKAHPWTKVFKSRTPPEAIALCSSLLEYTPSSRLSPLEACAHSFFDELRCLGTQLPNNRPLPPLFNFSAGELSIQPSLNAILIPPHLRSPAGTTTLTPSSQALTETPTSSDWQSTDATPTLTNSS", "UniProt P50750, sequence (whole entry, looked up)": "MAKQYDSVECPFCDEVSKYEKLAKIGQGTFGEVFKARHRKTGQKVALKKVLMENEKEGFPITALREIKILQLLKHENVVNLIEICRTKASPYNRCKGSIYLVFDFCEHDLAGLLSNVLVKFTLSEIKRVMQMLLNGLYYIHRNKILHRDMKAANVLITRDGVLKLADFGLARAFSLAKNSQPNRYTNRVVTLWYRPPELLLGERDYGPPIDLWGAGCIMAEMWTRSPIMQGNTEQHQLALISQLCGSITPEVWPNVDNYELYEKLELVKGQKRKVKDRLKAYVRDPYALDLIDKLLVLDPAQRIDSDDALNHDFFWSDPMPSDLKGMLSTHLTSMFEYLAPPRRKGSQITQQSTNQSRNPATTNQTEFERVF", "UniProt Q9UQM7, sequence (whole entry, looked up)": "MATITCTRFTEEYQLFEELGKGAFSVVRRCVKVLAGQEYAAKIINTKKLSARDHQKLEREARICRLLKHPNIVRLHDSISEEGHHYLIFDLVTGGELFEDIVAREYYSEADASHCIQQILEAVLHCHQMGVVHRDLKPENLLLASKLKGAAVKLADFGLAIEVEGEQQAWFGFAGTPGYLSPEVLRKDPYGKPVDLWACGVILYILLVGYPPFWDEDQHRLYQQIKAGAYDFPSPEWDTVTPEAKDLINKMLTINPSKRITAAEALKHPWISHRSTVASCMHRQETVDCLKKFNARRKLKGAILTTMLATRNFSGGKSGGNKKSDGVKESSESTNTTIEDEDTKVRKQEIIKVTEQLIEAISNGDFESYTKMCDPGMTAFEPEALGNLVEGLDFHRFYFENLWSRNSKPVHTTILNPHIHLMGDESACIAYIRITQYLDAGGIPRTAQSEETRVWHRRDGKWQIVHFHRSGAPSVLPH", "UniProt P51956, sequence (whole entry, looked up)": "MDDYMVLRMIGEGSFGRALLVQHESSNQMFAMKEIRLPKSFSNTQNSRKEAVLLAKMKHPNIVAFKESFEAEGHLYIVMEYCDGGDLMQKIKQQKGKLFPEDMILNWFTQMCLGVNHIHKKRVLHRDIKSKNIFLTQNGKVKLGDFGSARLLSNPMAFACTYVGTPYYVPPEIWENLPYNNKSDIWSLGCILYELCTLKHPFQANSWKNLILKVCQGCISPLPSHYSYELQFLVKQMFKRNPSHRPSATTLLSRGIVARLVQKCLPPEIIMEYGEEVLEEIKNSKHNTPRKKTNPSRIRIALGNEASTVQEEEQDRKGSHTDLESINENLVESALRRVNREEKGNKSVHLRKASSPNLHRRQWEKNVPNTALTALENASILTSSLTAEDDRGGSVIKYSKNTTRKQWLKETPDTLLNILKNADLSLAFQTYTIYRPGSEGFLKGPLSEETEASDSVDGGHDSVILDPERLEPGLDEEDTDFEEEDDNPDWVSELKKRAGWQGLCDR", "UniProt Q9NWZ3, sequence (whole entry, looked up)": "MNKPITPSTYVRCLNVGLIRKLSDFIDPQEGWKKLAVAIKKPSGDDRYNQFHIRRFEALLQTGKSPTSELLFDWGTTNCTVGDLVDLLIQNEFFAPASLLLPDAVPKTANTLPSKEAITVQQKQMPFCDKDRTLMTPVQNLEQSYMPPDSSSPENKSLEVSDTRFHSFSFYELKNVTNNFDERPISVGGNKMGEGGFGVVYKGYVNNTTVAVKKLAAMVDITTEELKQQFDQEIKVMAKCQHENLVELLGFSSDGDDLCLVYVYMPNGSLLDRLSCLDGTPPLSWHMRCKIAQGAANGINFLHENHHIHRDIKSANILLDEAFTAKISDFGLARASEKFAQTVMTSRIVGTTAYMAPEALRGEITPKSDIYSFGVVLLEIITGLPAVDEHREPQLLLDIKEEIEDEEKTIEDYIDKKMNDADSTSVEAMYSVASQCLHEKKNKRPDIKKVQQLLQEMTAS"}
{"data": "Study 1", "SMILES": "CC(C)(C)c1cc(C=C(C#N)C#N)cc(Br)c1O", "observed": "enzyme activity", "mode": "inhibitor", "tested at": "0.5 µM"}
{"target": "Cyclin-dependent kinase 9, with cyclin K (CDK9, Homo sapiens, UniProt P50750)", "remaining activity": "109%"}
{"target": "SRSF protein kinase 3 (SRPK3, Homo sapiens, UniProt Q9UPE1)", "reference": "control", "remaining activity": "79.4%"}
{"target": "Glycogen synthase kinase-3 alpha (GSK3A, Homo sapiens, UniProt P49840)", "reference": "control", "remaining activity": "104%"}
{"data": "Study 2", "target": "HLA class I histocompatibility antigen, C alpha chain, allele C*04:01 (Homo sapiens, UniProt P10321)", "observed": "peptide-MHC binding", "molecule type": "peptide", "tested at": "concentration not given"}
{"Sequence": "RPMLARLTV", "binding": "inactive"}
{"Sequence": "YPDPVIKV", "binding": "inactive"}
{"Sequence": "YMKKRYEEF", "binding": "inactive"}
{"Sequence": "AVDADDSHF", "binding": "inactive"}
{"Sequence": "QYDPVAALF", "binding": "active"}
{"Sequence": "LPSSSSYSY", "binding": "inactive"}
{"Sequence": "LTIPTIMGR", "binding": "inactive"}
{"Sequence": "YESSHWLVV", "binding": "inactive"}
{"data": "Study 3", "SMILES": "CC[C@@H](C)c1nc2cc(Nc3ccnc4ccc(S(=O)(=O)C(C)C)cc34)ccc2s1.Cl", "cell line": "L929 RIPK3-/- reexpressing RIPK3 K51A", "technique": "CCK-8"}
{"tested at": "25 µM", "survival": "64.2% and 66.8% and 108% and 62.8%"}
{"tested at": "12.5 µM", "survival": "95.2% and 87.6% and 110% and 107%"}
{"tested at": "50 µM", "survival": "61.9% and 57.9% and 51% and 28.3% and 58.4%"}
{"data": "Study 4", "target": "CCNF, cyclin fold, Cln2 fusion (human)", "technique": "yeast growth competition, sequencing", "sample": "yeast", "setting": "strong parent motif", "reference": "not given", "reading": "higher = stronger binding", "starting sequence": "viral docking peptide; PTARRRLLHDLDT"}
{"Change": "PAARRRLLHDLDT [T2A]", "normalised enrichment score": 3.17}
{"Change": "PTAARRLLHDLDT [R4A]", "normalised enrichment score": 1.04}
{"Change": "PTARRRLLFDLDT [H9F]", "normalised enrichment score": 8.84}
{"Change": "PTARRRLLHDLDA [T13A]", "normalised enrichment score": 3.45}
{"Change": "PTARRRLAHDLDT [L8A]", "normalised enrichment score": -0.0979}
{"Change": "PTARRRLFHDLDT [L8F]", "normalised enrichment score": 8.74}
{"Change": "PTARRRALHDLDT [L7A]", "normalised enrichment score": 0.883}
{"Change": "PTARRRLLHALDT [D10A]", "normalised enrichment score": 2.02}
{"data": "Study 5", "SMILES": "Cn1cncc1[C@](O)(COc1ccc(C#N)cc1-c1ccc(OC(F)(F)F)cc1)c1ccc(C#N)cc1", "technique": "competition with immobilised ligand", "tested at": "1 µM"}
{"target": "Serine/threonine-protein kinase 32A (STK32A, Homo sapiens, UniProt Q8WU08)", "observed": "cell-free assay", "remaining binding [%]": 100}
{"target": "Serine/threonine-protein kinase OSR1 (OXSR1, Homo sapiens, UniProt O95747)", "observed": "cell-free assay", "remaining binding [%]": 100}
{"target": "Phosphatidylinositol 4,5-bisphosphate 3-kinase catalytic subunit alpha isoform (PIK3CA, Homo sapiens, UniProt P42336)", "observed": "cell-free assay", "remaining binding [%]": 100}
{"target": "Epidermal growth factor receptor (EGFR, Homo sapiens, UniProt P00533, L858R/T790M)", "observed": "cell-free assay", "remaining binding [%]": 100}
{"target": "Epidermal growth factor receptor (EGFR, Homo sapiens, UniProt P00533, del747-750/T751S)", "observed": "cell-free assay", "remaining binding [%]": 80}
{"target": "Interferon-induced, double-stranded RNA-activated protein kinase (EIF2AK2, Homo sapiens, UniProt P19525)", "observed": "cell-free assay", "remaining binding [%]": 100}
{"target": "Serine/threonine-protein kinase 36 (STK36, Homo sapiens, UniProt Q9NRP7)", "observed": "cell-free assay", "remaining binding [%]": 80}
{"target": "Proto-oncogene tyrosine-protein kinase receptor Ret (RET, Homo sapiens, UniProt P07949, V804L)", "observed": "cell-free assay", "remaining binding [%]": 82}
{"target": "Proto-oncogene tyrosine-protein kinase receptor Ret (RET, Homo sapiens, UniProt P07949)", "observed": "cell-free assay", "remaining binding [%]": 94}
{"target": "Serine/threonine-protein kinase WNK2 (WNK2, Homo sapiens, UniProt Q9Y3S1)", "observed": "cell-free assay", "remaining binding [%]": 67}
{"target": "Tyrosine-protein kinase Fer (FER, Homo sapiens, UniProt P16591)", "observed": "cell-free assay", "remaining binding [%]": 83}
{"target": "Myosin-IIIa (MYO3A, Homo sapiens, UniProt Q8NEV4)", "observed": "binding", "remaining binding [%]": 100}
{"target": "Epidermal growth factor receptor (EGFR, Homo sapiens, UniProt P00533, A750P/del747-749)", "observed": "cell-free assay", "remaining binding [%]": 93}
{"target": "Receptor-type tyrosine-protein kinase FLT3 (FLT3, Homo sapiens, UniProt P36888, K663Q)", "observed": "cell-free assay", "remaining binding [%]": 90}
{"target": "Cyclin-dependent kinase 11A (CDK11A, Homo sapiens, UniProt Q9UQ88)", "observed": "binding", "remaining binding [%]": 100}
{"target": "Tyrosine-protein kinase ABL1, phosphorylated (ABL1, Homo sapiens, UniProt P00519, T315I)", "observed": "cell-free assay", "remaining binding [%]": 84}
{"target": "Cyclin-dependent kinase 2 homolog (CRK2, Plasmodium falciparum, UniProt P61075)", "observed": "cell-free assay", "remaining binding [%]": 77}
{"target": "Phosphatidylinositol 5-phosphate 4-kinase type-2 beta (PIP4K2B, Homo sapiens, UniProt P78356)", "observed": "cell-free assay", "remaining binding [%]": 100}
{"target": "Bone morphogenetic protein receptor type-1B (BMPR1B, Homo sapiens, UniProt O00238)", "observed": "cell-free assay", "remaining binding [%]": 77}
{"target": "Interleukin-1 receptor-associated kinase 4 (IRAK4, Homo sapiens, UniProt Q9NWZ3)", "observed": "cell-free assay", "remaining binding [%]": 75}
{"target": "Fibroblast growth factor receptor 3 (FGFR3, Homo sapiens, UniProt P22607, G697C)", "observed": "cell-free assay", "remaining binding [%]": 60}
{"target": "Hepatocyte growth factor receptor (MET, Homo sapiens, UniProt P08581, Y1235D)", "observed": "cell-free assay", "remaining binding [%]": 78}
{"target": "Serine/threonine-protein kinase Nek3 (NEK3, Homo sapiens, UniProt P51956)", "observed": "cell-free assay", "remaining binding [%]": 96}
{"target": "Maternal embryonic leucine zipper kinase (MELK, Homo sapiens, UniProt Q14680)", "observed": "cell-free assay", "remaining binding [%]": 74}
{"target": "Peripheral plasma membrane protein CASK (CASK, Homo sapiens, UniProt O14936)", "observed": "cell-free assay", "remaining binding [%]": 83}
{"data": "Mixed results"}
{"Compound": "OCC[N+]12CN3CN(CN(C3)C1)C2", "tested on": "mouse MPNST tumor cells", "test": "high-content immunofluorescence imaging, measured: nuclear SOX9", "conditions": "10 µM, 12 h, mean of 2 replicates", "how to read": "reference: DMSO control, higher = more nuclear SOX9", "measurement": "nuclear SOX9 intensity", "result": "103 % of DMSO"}
{"Compound": "COc1cc(N)c(Cl)cc1C(=O)NC1CN2CCC1CC2.Cl (stereo not drawn)", "tested on": "Sarcocystis neurona", "test": "parasite growth", "conditions": "concentration not given, secondary screen", "measurement": "inhibition", "result": "-27.3%"}
{"Compound": "NCC(O)c1ccc(O)cc1 (racemic)", "tested on": "mouse MPNST tumor cells", "test": "high-content immunofluorescence imaging, measured: nuclear SOX9", "conditions": "10 µM, 12 h, mean of 2 replicates", "how to read": "reference: DMSO control, higher = more nuclear SOX9", "measurement": "nuclear SOX9 intensity", "result": "90.2 % of DMSO"}
{"Compound": "O=C1C=CC(=O)c2c(O)ccc(O)c21", "tested on": "Calcium/calmodulin-dependent protein kinase type II subunit alpha (CAMK2A, Homo sapiens, UniProt Q9UQM7)", "test": "enzyme activity, inhibitor", "conditions": "10 µM", "measurement": "inhibition", "result": "-16%"}
{"note": "Repeated from above (mixed results):"}
{"Compound": "COc1cc(N)c(Cl)cc1C(=O)NC1CN2CCC1CC2.Cl (stereo not drawn)", "tested on": "Sarcocystis neurona", "test": "parasite growth", "conditions": "concentration not given, secondary screen", "measurement": "inhibition", "result": "-27.3%"}
{"Compound": "OCC[N+]12CN3CN(CN(C3)C1)C2", "tested on": "mouse MPNST tumor cells", "test": "high-content immunofluorescence imaging, measured: nuclear SOX9", "conditions": "10 µM, 12 h, mean of 2 replicates", "how to read": "reference: DMSO control, higher = more nuclear SOX9", "measurement": "nuclear SOX9 intensity", "result": "103 % of DMSO"}
{"Compound": "NCC(O)c1ccc(O)cc1 (racemic)", "tested on": "mouse MPNST tumor cells", "test": "high-content immunofluorescence imaging, measured: nuclear SOX9", "conditions": "10 µM, 12 h, mean of 2 replicates", "how to read": "reference: DMSO control, higher = more nuclear SOX9", "measurement": "nuclear SOX9 intensity", "result": "90.2 % of DMSO"}
{"Compound": "O=C1C=CC(=O)c2c(O)ccc(O)c21", "tested on": "Calcium/calmodulin-dependent protein kinase type II subunit alpha (CAMK2A, Homo sapiens, UniProt Q9UQM7)", "test": "enzyme activity, inhibitor", "conditions": "10 µM", "measurement": "inhibition", "result": "-16%"}
